Published values collected from several papers.
Several values in a cell are separate wells, animals, samples, runs or records. ± gives the spread as reported.
PPARG: Peroxisome proliferator-activated receptor gamma (PPARG, Homo sapiens, UniProt P37231)
Sequence of UniProt P37231 (whole entry, looked up): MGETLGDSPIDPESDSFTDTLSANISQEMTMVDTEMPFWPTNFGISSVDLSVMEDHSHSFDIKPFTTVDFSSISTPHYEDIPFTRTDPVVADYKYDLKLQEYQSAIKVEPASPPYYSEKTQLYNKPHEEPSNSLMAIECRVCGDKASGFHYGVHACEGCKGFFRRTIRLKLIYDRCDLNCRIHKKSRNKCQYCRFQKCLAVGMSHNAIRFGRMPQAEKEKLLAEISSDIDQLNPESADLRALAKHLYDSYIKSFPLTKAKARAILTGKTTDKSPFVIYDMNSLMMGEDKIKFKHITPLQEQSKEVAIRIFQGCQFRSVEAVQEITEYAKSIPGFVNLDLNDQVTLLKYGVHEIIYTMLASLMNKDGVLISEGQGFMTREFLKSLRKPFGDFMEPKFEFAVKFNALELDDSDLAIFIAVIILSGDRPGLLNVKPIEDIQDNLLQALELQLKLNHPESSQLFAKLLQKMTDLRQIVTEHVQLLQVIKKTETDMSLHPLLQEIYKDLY
Rhomboid protease AarA: Rhomboid protease AarA (Providencia stuartii, UniProt P46116)
Sequence of UniProt P46089 (whole entry, looked up): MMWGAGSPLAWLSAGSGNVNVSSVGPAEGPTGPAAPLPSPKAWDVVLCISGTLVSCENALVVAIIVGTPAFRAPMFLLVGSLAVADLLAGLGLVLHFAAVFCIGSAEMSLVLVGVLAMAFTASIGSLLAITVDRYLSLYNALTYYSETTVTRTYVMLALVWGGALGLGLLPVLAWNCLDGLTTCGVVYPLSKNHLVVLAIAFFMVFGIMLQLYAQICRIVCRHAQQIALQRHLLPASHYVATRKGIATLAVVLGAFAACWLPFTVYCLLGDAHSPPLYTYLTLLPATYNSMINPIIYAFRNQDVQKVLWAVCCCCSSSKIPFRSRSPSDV
Sequence of UniProt P46116 (whole entry, looked up): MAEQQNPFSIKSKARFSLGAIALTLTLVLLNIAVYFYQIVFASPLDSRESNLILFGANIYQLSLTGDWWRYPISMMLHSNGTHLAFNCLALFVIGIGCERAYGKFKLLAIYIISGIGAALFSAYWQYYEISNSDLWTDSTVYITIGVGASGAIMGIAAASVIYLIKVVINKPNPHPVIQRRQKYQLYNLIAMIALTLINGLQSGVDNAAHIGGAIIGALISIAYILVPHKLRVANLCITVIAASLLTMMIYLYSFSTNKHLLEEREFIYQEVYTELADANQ
Sequence of UniProt P43358 (whole entry, looked up): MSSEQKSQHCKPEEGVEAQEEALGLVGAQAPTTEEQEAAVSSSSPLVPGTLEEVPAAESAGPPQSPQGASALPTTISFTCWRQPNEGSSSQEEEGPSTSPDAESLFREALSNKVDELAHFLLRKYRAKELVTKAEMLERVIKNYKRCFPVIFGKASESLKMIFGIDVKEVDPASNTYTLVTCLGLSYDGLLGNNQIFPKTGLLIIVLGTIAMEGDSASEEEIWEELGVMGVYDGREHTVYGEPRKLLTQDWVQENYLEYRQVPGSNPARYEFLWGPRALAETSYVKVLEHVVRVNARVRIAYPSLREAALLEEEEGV
Sequence of UniProt P42356 (whole entry, looked up): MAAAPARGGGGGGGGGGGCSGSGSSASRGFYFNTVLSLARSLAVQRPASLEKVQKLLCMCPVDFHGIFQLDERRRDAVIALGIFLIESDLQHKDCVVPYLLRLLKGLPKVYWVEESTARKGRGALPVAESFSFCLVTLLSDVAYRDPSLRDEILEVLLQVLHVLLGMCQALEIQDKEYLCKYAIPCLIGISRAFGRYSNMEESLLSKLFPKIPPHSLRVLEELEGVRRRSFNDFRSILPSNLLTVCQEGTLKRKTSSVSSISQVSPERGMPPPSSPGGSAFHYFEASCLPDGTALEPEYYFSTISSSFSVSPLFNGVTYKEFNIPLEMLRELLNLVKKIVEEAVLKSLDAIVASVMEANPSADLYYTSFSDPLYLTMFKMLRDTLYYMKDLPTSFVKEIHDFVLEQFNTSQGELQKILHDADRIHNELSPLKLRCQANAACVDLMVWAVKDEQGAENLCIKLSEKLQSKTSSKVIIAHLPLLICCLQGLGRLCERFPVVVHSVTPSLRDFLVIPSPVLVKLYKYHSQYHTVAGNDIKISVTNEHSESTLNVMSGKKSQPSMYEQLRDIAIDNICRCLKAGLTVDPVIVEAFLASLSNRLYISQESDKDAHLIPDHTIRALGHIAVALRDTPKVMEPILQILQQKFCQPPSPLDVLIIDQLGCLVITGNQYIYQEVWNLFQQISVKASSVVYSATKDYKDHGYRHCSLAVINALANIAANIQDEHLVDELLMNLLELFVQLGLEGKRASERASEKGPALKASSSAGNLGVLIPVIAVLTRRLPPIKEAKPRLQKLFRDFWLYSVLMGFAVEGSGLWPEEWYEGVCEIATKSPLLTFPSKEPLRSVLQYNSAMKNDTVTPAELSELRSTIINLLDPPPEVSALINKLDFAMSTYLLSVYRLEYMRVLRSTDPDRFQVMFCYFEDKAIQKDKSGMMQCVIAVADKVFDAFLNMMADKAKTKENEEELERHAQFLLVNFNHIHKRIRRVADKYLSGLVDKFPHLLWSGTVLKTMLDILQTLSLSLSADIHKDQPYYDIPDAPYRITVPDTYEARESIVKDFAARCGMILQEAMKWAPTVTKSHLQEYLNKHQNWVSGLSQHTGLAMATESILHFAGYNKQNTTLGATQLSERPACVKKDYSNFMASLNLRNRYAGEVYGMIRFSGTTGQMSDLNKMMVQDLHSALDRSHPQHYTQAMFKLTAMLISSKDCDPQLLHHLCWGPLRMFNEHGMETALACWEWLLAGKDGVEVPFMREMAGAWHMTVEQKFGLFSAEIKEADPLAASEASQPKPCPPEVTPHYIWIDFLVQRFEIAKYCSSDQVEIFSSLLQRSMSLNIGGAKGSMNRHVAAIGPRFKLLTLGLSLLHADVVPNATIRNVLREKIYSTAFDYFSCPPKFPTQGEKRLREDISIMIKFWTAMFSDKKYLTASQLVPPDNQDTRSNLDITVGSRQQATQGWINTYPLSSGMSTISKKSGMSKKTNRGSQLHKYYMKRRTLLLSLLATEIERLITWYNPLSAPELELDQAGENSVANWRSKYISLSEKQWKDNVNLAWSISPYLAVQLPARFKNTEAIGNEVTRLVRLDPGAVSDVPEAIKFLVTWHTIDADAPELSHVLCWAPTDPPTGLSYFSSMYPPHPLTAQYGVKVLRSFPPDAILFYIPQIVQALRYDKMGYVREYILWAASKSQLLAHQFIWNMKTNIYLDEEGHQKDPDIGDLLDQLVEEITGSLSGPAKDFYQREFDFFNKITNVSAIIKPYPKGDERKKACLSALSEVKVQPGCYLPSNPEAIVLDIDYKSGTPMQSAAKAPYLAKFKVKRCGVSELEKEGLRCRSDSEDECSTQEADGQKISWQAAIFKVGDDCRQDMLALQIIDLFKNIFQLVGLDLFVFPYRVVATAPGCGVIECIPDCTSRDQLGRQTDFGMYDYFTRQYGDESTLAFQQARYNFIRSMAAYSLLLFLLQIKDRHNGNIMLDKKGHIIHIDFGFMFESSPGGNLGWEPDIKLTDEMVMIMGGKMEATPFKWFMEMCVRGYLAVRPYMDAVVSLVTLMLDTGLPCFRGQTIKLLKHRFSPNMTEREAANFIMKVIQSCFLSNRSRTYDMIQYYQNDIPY
Sequence of UniProt P51681 (whole entry, looked up): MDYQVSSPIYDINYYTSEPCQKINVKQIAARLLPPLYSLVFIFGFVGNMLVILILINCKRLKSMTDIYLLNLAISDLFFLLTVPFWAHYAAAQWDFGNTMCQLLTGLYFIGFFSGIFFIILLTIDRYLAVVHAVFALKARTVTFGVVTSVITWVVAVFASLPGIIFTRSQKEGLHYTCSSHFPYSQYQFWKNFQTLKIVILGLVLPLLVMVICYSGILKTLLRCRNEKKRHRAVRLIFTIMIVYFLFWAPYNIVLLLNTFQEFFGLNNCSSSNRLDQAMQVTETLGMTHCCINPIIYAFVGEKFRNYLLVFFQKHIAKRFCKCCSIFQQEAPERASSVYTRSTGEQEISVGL
Sequence of UniProt Q9UM07 (whole entry, looked up): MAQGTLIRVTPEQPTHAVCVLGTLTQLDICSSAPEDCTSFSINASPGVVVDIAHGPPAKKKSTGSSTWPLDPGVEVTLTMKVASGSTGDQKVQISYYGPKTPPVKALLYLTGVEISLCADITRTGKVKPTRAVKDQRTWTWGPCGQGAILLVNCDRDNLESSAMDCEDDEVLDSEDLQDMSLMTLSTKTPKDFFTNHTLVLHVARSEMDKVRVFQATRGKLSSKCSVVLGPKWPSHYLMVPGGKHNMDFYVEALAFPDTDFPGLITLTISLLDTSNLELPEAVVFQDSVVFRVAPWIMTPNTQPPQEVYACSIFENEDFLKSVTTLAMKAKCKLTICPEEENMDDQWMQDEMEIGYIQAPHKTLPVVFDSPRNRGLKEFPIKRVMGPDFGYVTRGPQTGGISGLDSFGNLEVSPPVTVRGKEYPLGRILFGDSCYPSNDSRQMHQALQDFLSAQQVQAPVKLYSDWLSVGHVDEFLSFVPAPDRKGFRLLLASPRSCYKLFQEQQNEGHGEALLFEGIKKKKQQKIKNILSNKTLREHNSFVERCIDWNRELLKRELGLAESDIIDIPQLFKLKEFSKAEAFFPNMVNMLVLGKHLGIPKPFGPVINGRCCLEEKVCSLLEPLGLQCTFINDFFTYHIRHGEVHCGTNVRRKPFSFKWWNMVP

Compound	target or system	assay	test system	setting	how to read	measurement	result
CC(C)OCCOCc1ccc(OCC(O)CN(N=O)C(C)C)cc1 (stereo not drawn)	Salmonella typhimurium	Ames test	TA100	1580 µg/plate, 30 % hamster S9	baseline: solvent control	revertant fold increase	2.5 fold
Cc1c(Cc2cncc(O[C@H](C)C(=O)O)c2)c2ccc(C(=O)N[C@@H](C)c3ccc(C(C)(C)C)cc3)cc2n1CC1CCC1	PPARG	ligand displacement, TR-FRET				IC50	0.723 µM
CC(C)Oc1cc(Cl)ccc1CNc1cc(-c2ccccc2)nc2ncnn12	G-protein coupled receptor 3 (GPR3, Homo sapiens, UniProt P46089)	cAMP reporter	human cells	30 µM	higher is more cAMP	cAMP luminescence	5780 a.u. and 1900 a.u. and 4690 a.u. and 1790 a.u.
O=C1CC(c2ccccc2)N1S(=O)(=O)c1cccc(-c2ccccc2)c1 (stereo not drawn)	Rhomboid protease AarA	enzyme activity, inhibitor, fluorogenic peptide		38 min pre-incubation		IC50	17 µM
Cc1nn(-c2cccc(N)c2)c(=O)c2cnc(Nc3ccc(N4CCNCC4)cc3)nc12	Phosphatidylinositol 4-kinase alpha (PI4KA, Homo sapiens, UniProt P42356)	enzyme activity, inhibitor				IC50	> 10 µM
CC[C@H](C)[C@@H]1NC(=O)[C@H](Cc2ccccc2)NC(=O)CCSCc2cccc(c2)CSCCNC(=O)[C@H](Cc2c[nH]cn2)NC(=O)[C@H](Cc2ccc(O)cc2)NC(=O)[C@H](CC(=O)O)NC(=O)[C@H](Cc2ccc(F)cc2)NC(=O)[C@H](CC(C)C)NC(=O)[C@H](CCCCN)NC1=O	Melanoma-associated antigen 4, MAGE homology domain (Homo sapiens, UniProt P43358)	binding, inhibitor, TR-FRET displacement		added: Alexa647-MTP-1		IC50	0.203 ± 0.09 µM
Nc1ncc(-c2cc(-c3cnn(CC(F)(F)F)c3)ncc2F)nc1C(=O)NC1CNCC(F)C1 (stereo not drawn)	TNNI3K	KINOMEscan		1 µM	baseline: DMSO control	remaining binding	92%
Cc1c(C)n(-c2ccc(Br)cc2)c2ncnc(N3CCC(C(N)C(=O)N4CCCC4)CC3)c12 (stereo not drawn)	Protein-arginine deiminase type-4 (PADI4, Homo sapiens, UniProt Q9UM07)	enzyme activity, inhibitor, fluorescence				IC50	15.9 µM
O=C1CC(c2ccc(Br)cc2)N1S(=O)(=O)c1cccc(Cl)c1 (stereo not drawn)	Rhomboid protease AarA	enzyme activity, inhibitor, fluorescence				IC50	18.6 µM
Cc1c(Cc2cccc(OC(C(=O)O)C(F)(F)F)c2)c2ccc(C(=O)N[C@@H](C)c3cccc(C(C)(C)C)c3)cc2n1C (stereo partly drawn)	Peroxisome proliferator-activated receptor gamma, ligand-binding domain (PPARG, Homo sapiens, UniProt P37231)	reporter gene, luciferase reporter	HEK293T, Gal4-PPARγ LBD			IC50	77.7 µM
N#Cc1ccc(-c2ccc(NC(=O)C(C(F)(F)F)C(F)(F)F)cc2)cc1	Rhomboid protease AarA	enzyme activity, inhibitor, fluorescence				IC50	9.2 µM
Cc1c(Cc2cc(F)cc(OC(C)(C)C(=O)O)c2)c2ccc(C(=O)N[C@@H](C)c3cccc(C(C)(C)C)c3)cc2n1CC(C)C	PPARG	ligand displacement, TR-FRET				IC50	0.00212 µM
Cc1nnc(-c2ccc(CC(=O)NCCOCCOCCOCCOCC(=O)NC(CCN3C4CCC3CC(n3c(C)nnc3C(C)C)C4)c3ccccc3)cc2)nn1 (stereo not drawn)	C-C chemokine receptor type 5 (CCR5, Homo sapiens, UniProt P51681)	calcium mobilization, antagonist	HEK-293T	2 h preincubation, top constrained to 1, added: 0.1 µM PSC-RANTES		IC50	0.0447 µM
C=CC(=O)Nc1cccc(Cn2ncc3cnc(Nc4cnn(CCOC)c4)nc32)c1	WNK1 human	binding, KINOMEscan		100 nM	lower = stronger binding	percent of control	100%
O=C(Nc1cccc2c1OCC2)C(C(F)(F)F)C(F)(F)F	Rhomboid protease AarA	enzyme activity, inhibitor, fluorescence				IC50	7.3 µM
Cc1c(Cc2ccc(OC(C)C(=O)O)cc2)c2ccc(C(=O)N[C@@H](C)c3cccc(C(C)(C)C)c3)cc2n1C (stereo partly drawn)	PPARG	ligand displacement, TR-FRET				IC50	0.029 µM
C=C(NC(=O)c1csc(-c2nc3c(cc2O)-c2nc(cs2)C(=O)NC(C(C)O)C(=O)NC(=C(C)OC)c2nc(cs2)C(=O)NC2c4nc(cs4)C(=O)NC(COC(=O)c4c5c6c(cccc6n4O)COC(=O)C(OC4CC(C)(O)C(N(C)C)C(C)O4)C2OC5)c2nc-3cs2)n1)C(N)=O (stereo not drawn)			cynomolgus monkey, male, plasma	intravenous infusion, 1 mg/kg single dose		clearance	1.94 mL/min/kg
COC1CN([C@H]2CC[C@H]([C@@]3(C)Oc4c(Cl)cc(C(=O)NCc5c(SC)cc(C)[nH]c5=O)c(C)c4O3)CC2)C1		RNA-seq, refers to: AJUBA mouse homolog	mouse, HT-1376 xenograft, whole blood	dose not given	baseline: vehicle	log2 fold change	1.57

Repeated from above:
Compound	target or system	assay	test system	setting	how to read	measurement	result
O=C(Nc1cccc2c1OCC2)C(C(F)(F)F)C(F)(F)F	Rhomboid protease AarA	enzyme activity, inhibitor, fluorescence				IC50	7.3 µM
